# Published values from different studies.
# Parts stem from different laboratories: compare values within a part only. Substitutions count along the parent as printed.

# Block 1
# Target: RNA binding protein fox-1 homolog 2, RRM domain, GST-SBP tag (RBFOX2, Homo sapiens, UniProt O43251-10, residues 100-194)
# Technique: RNA Bind-n-Seq
# Form: RNA
# Medium: in vitro
# Tested at: 365 nM
# Setting: natural RNA segment, single round, ends assumed
# Reference: no-protein control
# Direction: higher = stronger binding
# Shared flanks, not repeated: GGGAGUUCUACAGUCCGACGAUC … UGGAAUUCUCGGGUGCCAA
# Residues (chain): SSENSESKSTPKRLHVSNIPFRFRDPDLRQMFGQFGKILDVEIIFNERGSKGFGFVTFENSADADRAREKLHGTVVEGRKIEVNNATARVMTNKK
Sequence,RBNS enrichment (R)
CUAAGGAUGAUAUUGGAAUGCACCAGCCCUCACAUGUGUAUGCACAUUUGCCAGAAUAUAAGAGUUUUGUUUUAAAUACAGUCUUGUUAGGAUUUUACGUUAUUGUUAUU,0.901
UAUGCAUGUUCCUUUCAUGUGUAUUUAAUCAUGAUGUUUAAUUUUGCACACUUAUUUGUAAUGUUUCUUUUAAAUAAAAGUGACUAAUUUUGUUGUAGUCUGGACCUGUA,0.572
AAAAGGCUGCCUUCAAUUCUAAGCUUUGUUUUUUUGUGGUUUUUGUUAUUAUUUGUUUCUGUUGUUUACUCUUUAAUCGUAAGUACUUUUAAACCACGACCCAGGUCCUU,0.584
AGAGUCAAAGUGGCUUUCUACGCCCAGUACGCCAACUGAGUCUGCCCUCGGGAGGUGGCCCAUUAUUGCUGGGAUGCGGUGUUGGUAAAGGUUUCCAGGACUGAAACUUU,0.436
AACAGUGCUUACGUUGUCUCCAUGUGUACGGGGCCUGUGUGGAUGGUCGUAUGUUUUGCACAUUUUGUAGUUGUUGGUGUGCUUCGCCGCACACAAAAAAAGAAGACUUU,0.483
UUGUAGAAAAAAAAAAUCACAUCAUGGUGCUCCUGCGAUCAGCUUCUGAAGUGCUGGGAGCAUAGGAAGAUUGACAUUCUGUGUGACUUGUGAGGCUCAGAUGCUGAUAC,0.307
UUCACUAUGUUGCCCAGGCUGAUCUCGAACUCCUAGGCUCAAGCAAUCCUCCCAAUAUGCUGGGAUUACAGGCAUGAGCCACCACCUGGCCCAAGCAAGAAAUUGACACU,0.2
CCCUUCCUCAGGCUCCCCCGGCCCACCCUGCUCAGUGACCCCACAGGAAGCUUACACAUUUUCUCAGAGGCCUUUGUGCUCCCACCUCUUCUACCCUCCCCCUCUUCUUU,0.894
GCAGAUUUCGGAAAUUGGCAAGCUACGGGAUUCCUUCCUGAAAGAUCAACUGUGUCUUAAGGCUCUCCAGCCUAUGCAUACUGUAUCCUGCUUCAGACUUAGGUACAAUU,0.441
GCCUCCUGACCCUCCCUGCACUUAGCCCUUCCAAGGGACAUCCAGUGGAGCACUGGCAUCUCGAGCUUGGGAAGGUCUUUAGAAUUAGGCUCUCUGGAGCAGGGCCUGUA,1.21
UACAACAUGUACAUAAGAAUACACAUAAUUCAACUAGAGAUUUGAAGAAUUGGCUUGUAUAGUUAUAACAACCACAGUAGAAACAUUUCUACUUUGAGAGAAUUUCAAUA,0.989
GAUCAGCUGGCUGGGAGGAUUAGUGAGCACCUCUGUAUUUUGAGGUCUGAGUCUUCUGGAGCUGUGUAGUUAAUCUUCGGUUUCUGAUAACCCCUGGGUCCAUCUGGCCA,0.465

# Block 2
# Target: RING finger protein unkempt homolog, zinc fingers 1-6, GST-SBP tag (UNK, Homo sapiens, UniProt Q9C0B0, residues 30-357)
# Chain of UniProt Q9C0B0 (30-357, looked up): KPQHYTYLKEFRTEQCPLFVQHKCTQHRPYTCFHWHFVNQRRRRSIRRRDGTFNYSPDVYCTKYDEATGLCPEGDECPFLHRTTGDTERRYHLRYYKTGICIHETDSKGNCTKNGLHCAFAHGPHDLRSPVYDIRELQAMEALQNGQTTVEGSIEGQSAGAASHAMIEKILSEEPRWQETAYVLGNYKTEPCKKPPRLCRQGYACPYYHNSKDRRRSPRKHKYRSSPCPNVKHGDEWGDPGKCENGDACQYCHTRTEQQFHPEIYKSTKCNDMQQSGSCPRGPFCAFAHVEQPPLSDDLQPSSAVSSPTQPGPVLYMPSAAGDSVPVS
# Technique: RNA Bind-n-Seq
# Form: RNA
# Medium: in vitro
# Tested at: not given
# Setting: RNA with constant flanks, human-mouse chimeric sites, ends assumed
# Reference: input RNA pool
# Direction: higher = stronger binding
# Shared flanks, not repeated: GGGAGUUCUACAGUCCGACGAUC … CAACAGAGGAUUGAGCAUCA
Sequence,bound/input enrichment
GCUCCUCCCCGCUCUGCCCCUGCCUGCCACUGGGCUGGGACCAGAAUCCAGCUUUCUUUUAAAACUCUCAGUGUAACUGUAUCCCGUGACAUUUCAUUUUUUUUUUAUAGUGUAUUUUUU,20.2 ratio
UCCCAAAUCCAGCAGCUCCUUGAAAUAUUGAGACAAACACUCCACACACAGGGAAGGCGAUAACAUUGUACAUUGGUUUACAUUUUUUCCCCCUGUGUUUUCUAGGGGAGGUCAUAGUGC,0.271 ratio
AAUGUUCUUAAUAUUUUUGAAUAAAUGAAGCUAAAAUGUCUGCUUUUGGUACAACACGCAUUAAUAAAAGGUUAAGUAAGUUUUGUUACUGAAGUACUAUUUAACAUCUCAGAAAAAAAC,0.183 ratio
GGACAUCUGUCAAAUUGUUAUGUUCCUGUGAAACAAGUGAACACUCUUCAUAUACUAAUCUGCUUGUACAUCUGUAUGAUAGAGAAAUGUAAAUAUGUUAAUCCAAGCAAUGUGUCACUU,0.229 ratio
GCUCUUGGGAAUGUAAUCAGCGCCUUGGGAGACAAGAGCAAGAGAGCCACCCAUGUCCCUUACAGAGACUCUAAGCUGACAAGACUCUUGCAGGAUUCCCUUGGGGGUAACAGCCAAACC,0.126 ratio
UACUACUAUGAUGGUGAUAUUGGCAAUUAUUAUUAUGGACAGGGUCAUCCCAUGAAGCCUCAUAGAAUCCGGAUGACCCAUAACUUGCUGCUAAAUUAUGGUUUAUACCGAAAAAUGGAA,0.274 ratio
AACAGAUUGUCUUUAAGCAUUCCAAGCGAGAAUGCUGGGGUGAUCAUUGUUGCCCAUGUGCCUUCUGUAAUAGAUGGAAUGCUGUUCCAUGUUACAUCUUUCCUUCAUUGCAUAUUUGUU,0.118 ratio
AAUUUCCUGUCAUACUUUUUAGACAUUCACAUCAGACUUACAGAGCACCUGGCCACAUUCUAGUUUUGUGUUAUUUCUCAGCUAUGGGGGUAUGAUUAUGAGAACACUGCUUAACUAAUG,1.2 ratio
UAUAUCACCAAUGUCCUACAAAAUCCUGACUUGGCUCUGAGAAUGGCUGUACGUAAUAACUUAGCUGGUGCUGAAGAACUCUUUGCCCGGAAAUUUAAUGCUCUUUUCGCCCAGGGAAAC,0.252 ratio
AAUGUGGAGUUGAGUUCCUUGGCCCGGCUUCCCAGCUUGAAUAAACUCCGGAAGUUGGAACUUAGUGACAAUAUAAUUUCUGGAGGCUUGGAAGUCCUGGCAGAGAAAUGUCCAAAUCUU,0.298 ratio
GUACUGCAGCAGCAGGGAAAACUGCAGGAAGCACUGAUGCAUUAUAAGGAGGCUAUUCGAAUCAGUCCUACAUUUGCUGAUGCCUACUCUAAUAUGGGAAACACUCUAAAGGAGAUGCAG,0.331 ratio

# Block 3
# Target: Histone acetyltransferase KAT6A, winged helix 2, GST fusion (KAT6A, Homo sapiens, UniProt Q92794, residues 85-181)
# Technique: protein binding microarray
# Form: double-stranded DNA, one strand shown
# Medium: in vitro
# Tested at: not given
# Setting: 8-mer, flanks averaged, mean of 2 arrays, mostly near background
# Reference: not given
# Direction: higher = stronger binding
# Residues (chain): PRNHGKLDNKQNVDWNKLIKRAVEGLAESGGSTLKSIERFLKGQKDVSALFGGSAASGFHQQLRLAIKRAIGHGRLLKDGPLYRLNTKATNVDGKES
Sequence,E-score
CACCGCGC,0.208
CTGCGTTC,0.168
CGATTTCA,-0.00873
CCATAGCG,-0.00792
AGAGTCCG,-0.00396
CTTTGTAC,-0.0968
GTGGCTAA,0.106
GGCGGCCA,0.0267
GACACCAC,-0.0608
GAACCGAC,0.2
GAAGTCGA,-0.00839
CACTGTAA,0.028
CTTGCCGC,0.144
CGCCCCAG,0.139
GTGAGAGA,-0.101
CGGCGACA,0.0245
ACGCAGAG,0.208
AATGCACC,0.0676

# Block 4
# Target: Sal-like protein 4, full length isoform A (SALL4, Homo sapiens, UniProt Q9UJQ4, residues 1-1053)
# Chain of UniProt Q9UJQ4 (whole entry, looked up): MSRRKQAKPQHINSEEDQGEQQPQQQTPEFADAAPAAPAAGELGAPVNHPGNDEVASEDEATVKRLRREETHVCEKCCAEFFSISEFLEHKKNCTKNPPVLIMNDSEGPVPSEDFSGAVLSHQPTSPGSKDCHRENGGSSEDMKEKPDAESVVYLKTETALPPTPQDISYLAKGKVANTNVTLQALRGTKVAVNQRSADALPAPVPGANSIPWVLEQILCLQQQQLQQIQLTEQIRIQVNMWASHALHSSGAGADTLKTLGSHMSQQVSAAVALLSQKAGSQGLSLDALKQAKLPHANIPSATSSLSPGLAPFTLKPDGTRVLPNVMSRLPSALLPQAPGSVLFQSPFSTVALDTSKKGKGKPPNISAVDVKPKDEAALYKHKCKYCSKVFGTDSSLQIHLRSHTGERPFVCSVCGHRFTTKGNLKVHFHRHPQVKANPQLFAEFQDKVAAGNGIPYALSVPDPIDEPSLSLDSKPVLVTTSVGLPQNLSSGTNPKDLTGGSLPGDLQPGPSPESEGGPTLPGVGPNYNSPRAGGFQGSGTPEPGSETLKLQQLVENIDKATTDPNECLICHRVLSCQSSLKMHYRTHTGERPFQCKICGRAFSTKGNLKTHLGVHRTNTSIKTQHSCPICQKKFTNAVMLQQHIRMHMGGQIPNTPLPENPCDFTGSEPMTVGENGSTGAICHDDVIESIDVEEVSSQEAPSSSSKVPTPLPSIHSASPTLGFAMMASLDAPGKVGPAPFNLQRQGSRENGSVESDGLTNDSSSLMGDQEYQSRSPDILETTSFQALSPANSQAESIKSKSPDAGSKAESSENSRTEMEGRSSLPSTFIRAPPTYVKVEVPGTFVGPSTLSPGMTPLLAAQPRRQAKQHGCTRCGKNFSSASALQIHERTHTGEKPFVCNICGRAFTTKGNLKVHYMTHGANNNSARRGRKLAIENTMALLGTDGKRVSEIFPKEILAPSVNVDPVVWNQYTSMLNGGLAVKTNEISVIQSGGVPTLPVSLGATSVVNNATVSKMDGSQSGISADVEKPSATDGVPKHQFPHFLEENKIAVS
# Technique: universal PBM
# Form: double-stranded DNA, one strand shown
# Medium: in vitro
# Tested at: 600 nM
# Setting: 8-mer, flanks averaged, mean of replicates
# Direction: higher = stronger binding
Sequence,E-score
GCAATACC,0.0524
AGTGCAGC,-0.169
GAGATTAA,0.143
GAATGGTA,0.16
CGGGACTC,-0.303
ATTACGGC,-0.0649
CGAATAAG,0.185
AACGAGAA,0.251
ATTACAAT,0.322
ACCGAAAT,0.0892
AGGTAGAC,-0.133
CCGACTAG,-0.212
GAACGAAC,0.0384
AGGTTGTA,0.127
AGTGGCTA,-0.0712
CCGTAACC,-0.125
ATCCTCCC,-0.132
AGCATCGG,-0.201

# Block 5
# Target: ABI1, truncated, D143A, DHFR fusion (Arabidopsis thaliana)
# Technique: DHFR PCA, deep sequencing
# Medium: yeast
# Setting: methotrexate growth selection, single substitutions
# With: (+)-ABA 1.4 µM
# Reference: wild-type fitted maximum
# Direction: higher = stronger binding
# Starting sequence: PYL1, truncated, DHFR fusion (Arabidopsis thaliana); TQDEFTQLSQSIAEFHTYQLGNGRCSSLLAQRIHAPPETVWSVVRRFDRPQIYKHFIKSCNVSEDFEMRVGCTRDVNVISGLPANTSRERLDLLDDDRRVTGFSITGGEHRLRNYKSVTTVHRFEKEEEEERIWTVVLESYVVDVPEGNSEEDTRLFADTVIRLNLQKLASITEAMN
Substitution,relative binding score [%]
L164W,32.6
E174P,1.7
E151R,38
V118R,64.7
V145Y,-51.4
V143F,-9.58
R45A,-5.95
G102V,-1.93
T120F,-4.58
R98D,13.6
R123F,1.14
N177I,40.7
L94Q,-2.33
D92F,6.89
V76L,34.8
I133G,78.4
A84Q,2.21
R98Q,42.6
A158I,66

# Further values, each from its own experiment
# Target: human cyclin A1
# Observed: cyclin docking binding
# Technique: deep mutational scanning
# Form: peptide
# Medium: yeast cyclin A1-Cln2 system
# Direction: direction not given
Sequence,"score relative, wild type, peptide"
GSAKRRLFGEDPP,0
TLKGRRLVFDNQL,0
